Experimental data collected from several papers.
Numbered parts are unrelated; each lists some results of a single study. Changes are numbered by the printed parent chain.

Study 1 — technique: aptamer microarray, sandwich; molecule type: DNA with 2'F-ANA; matrix: in vitro; tested at: 200 nM; together with: Cy3 exosite-II aptamer, 400 nM; direction: higher = stronger binding; oligonucleotide: GGTTGGTGTGGTTGG
Target: Prothrombin, mature alpha-thrombin (F2, Homo sapiens, UniProt P00734)
Setting: whole 15-mer aptamer, many near background
Modification	mean fluorescence intensity
2'F-ANA at 1 2 3 4 8 11 12 15	365 a.u.
2'F-ANA at 1 3 5 9 11 12 14 15	46.4 a.u.
2'F-ANA at 3 4 8 9 10 14	268 a.u.
2'F-ANA at 1 3 5 6 7 8 9 11 12 13	78.7 a.u.
2'F-ANA at 1 2 3 5 7 9 10 11 13 14 15	49.2 a.u.
2'F-ANA at 2 4 6 7 8 9 11 12 13 14	101 a.u.
2'F-ANA at 2 3 6 11 15	599 a.u.
2'F-ANA at 4 5 6 7 8 9 13 14	47.2 a.u.
2'F-ANA at 3 7 8 10 11 12 13	601 a.u.
2'F-ANA at 2 3 4 8 9 11 12 14 15	263 a.u.
2'F-ANA at 5 6 7 8 11 12 14	46.6 a.u.
2'F-ANA at 3 4 5 7 9 12 13	116 a.u.
2'F-ANA at 1 4 5 7 8 13 15	53.4 a.u.
2'F-ANA at 2 7 8 9 10 12 13 14	164 a.u.
2'F-ANA at 2 6 7 9 11 12	474 a.u.
2'F-ANA at 1 4 5 8 12 13	86.5 a.u.
2'F-ANA at 1 2 3 5 6 11 13 14 15	48.9 a.u.
2'F-ANA at 2 4 5 9 10 11 13 14	45.8 a.u.
2'F-ANA at 1 2 4 9 10 13 14 15	46.2 a.u.
2'F-ANA at 1 8 9 11 13 15	165 a.u.
2'F-ANA at 2 4 6 7 8 12 14 15	147 a.u.

Study 2 — technique: protein binding microarray; molecule type: double-stranded DNA, one strand shown; matrix: in vitro; tested at: not given; reference: not given; direction: higher = stronger binding
Target: Histone acetyltransferase KAT6A, winged helix 1, GST fusion (KAT6A, Homo sapiens, UniProt Q92794, residues 1-85)
Setting: 8-mer, flanks averaged, mean of 2 arrays, mostly near background
Construct (chain): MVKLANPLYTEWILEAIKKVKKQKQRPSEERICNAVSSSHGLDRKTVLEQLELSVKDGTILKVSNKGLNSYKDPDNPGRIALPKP
Oligonucleotide	E-score
CTGGTACC	0.0736
CCGGGGAA	0.263
CTGGCCAC	-0.169
ATGGACTC	0.0272
AGCTTGAT	-0.152
ATGAATCC	-0.0825
GCATTCGC	0.258
AAAAATAC	-0.0328
GGAAACAC	0.151
ATTTGGTA	-0.19
TACGCCAA	-0.0676
ATCAGTAG	-0.218
CTTCTTCA	-0.0785
ATATAACA	-0.0407
TGACATCA	-0.128
GGGTAGAA	0.0515
ACCATCAA	-0.112
AACGCCAC	-0.0371
AAATAGTC	0.0004
CAATTAGA	-0.217
AGCCCAGA	-0.134
AAGGTCTC	0.0196
GTGTGAAC	-0.0359
GAGAGTTA	-0.172

Study 3 — target: CREB5, bZIP domain (human); technique: DHFR protein complementation; matrix: yeast; reference: wild-type JUN-FOS pair; direction: higher = stronger binding
Setting: single substitutions, most at no-binding floor
Parent: JUN, bZIP domain (human); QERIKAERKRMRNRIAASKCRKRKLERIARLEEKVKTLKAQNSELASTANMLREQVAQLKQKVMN; partner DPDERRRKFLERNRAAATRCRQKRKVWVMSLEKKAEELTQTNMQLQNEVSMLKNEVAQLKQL
Change	binding fitness
A29R	-0.323 natural log
Q41Y	-1.42 natural log
V35F	-1.07 natural log
E32P	-1.28 natural log
K39Q	-0.277 natural log
R30H	-0.145 natural log
Q55Y	-0.628 natural log
A40P	-1.44 natural log
Q58R	-0.479 natural log
T37Q	-0.0612 natural log
N42Q	-0.593 natural log
K39M	-0.326 natural log
Q41C	-1.06 natural log
E54A	-0.424 natural log
L38M	-0.825 natural log
M51K	-0.255 natural log
E32R	-0.288 natural log

Study 4 — technique: RNA Bind-n-Seq; molecule type: RNA; matrix: in vitro; tested at: not given; reference: input RNA pool; direction: higher = stronger binding
Target: RING finger protein unkempt homolog, zinc fingers 1-6, GST-SBP tag (UNK, Homo sapiens, UniProt Q9C0B0, residues 30-357)
Sequence of UniProt Q9C0B0 (30-357, looked up): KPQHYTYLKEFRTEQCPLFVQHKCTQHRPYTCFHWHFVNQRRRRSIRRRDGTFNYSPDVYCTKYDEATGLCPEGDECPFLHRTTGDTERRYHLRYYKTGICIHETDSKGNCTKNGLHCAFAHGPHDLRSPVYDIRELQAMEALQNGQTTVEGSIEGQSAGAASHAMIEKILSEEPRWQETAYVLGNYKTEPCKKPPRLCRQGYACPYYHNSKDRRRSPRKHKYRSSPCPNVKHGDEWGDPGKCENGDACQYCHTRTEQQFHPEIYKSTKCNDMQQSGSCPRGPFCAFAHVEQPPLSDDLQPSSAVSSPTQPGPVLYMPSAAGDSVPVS
Setting: RNA with constant flanks, human and mouse sites, ends assumed
All sequences stand within: GGGAGUUCUACAGUCCGACGAUC … CAACAGAGGAUUGAGCAUCA
Oligonucleotide	bound/input enrichment [ratio]
GAGCCACGAUGCUCCCCAUACCCCACCCAUUCCCGAUACACCUUACUUACUGUGUGUUGGCCCAGCCAGAGUGAGGAAGGAGUUUGGCCACAUUGGAGAUGGCGGUAGCUGAGCAGACAU	0.153
UUCAGGAAGGGCCGGGAAGACAGAGCUCCACUCCUGAAGACGUUCAGCUUCUUGGGCUUUGAGAUUGUGCGUCCAGGUCAUCCCUGUGUCCCCUCUCGGCCAGAUGUGAUGUUUAUGGUU	0.105
CACUUUAAGCAGUAUGUUCCUAUCAUUGAAAAAGAAGCAAAGGAAUACUUUCAAAGUUGGGGAGAAAGCGGAGAAAGAAAUGUGUUUGAAGCACUGUCUGAGCUCAUAAUUUUGACAGCU	0.109
GGACACUGUGUACACAUGCGGGGAUUACCUUACAGAGCUACUGAGAAUGACAUUUAUAAUUUUUUUUCACCGCUCAACCCUGUGAGAGUACACAUUGAAAUUGGUCCUGAUGGCAGAGUA	0.828
GGUAACCAGAGAAAAGUUCCUUUCUGAAUGGAGAGCUCUCCUCACUGCUCCAGCACCAUACUUAGAACCCUCACUCUCUUUCAAAAGAAUGGCAGUUGAGAUUCACUGGCCCUCAGGGGA	0.125
GCUAGUCAGUCUGGGGCAACAUUCUUUAGCAUCUCUGCUUCAUCCUUAACUUCUAAAUGGGUAGGUGAGGGGGAGAAAAUGGUCCGUGCAUUGUUUGCUGUUGCAAGGUGUCAGCAACCA	0.303
UGUGGACAAGGAGACAAAGCAGAUGAGAAAGAUGGUAAGAAAAAGCAUGCCAGCAGCACUUCAGAUUCACAUAUCUUGGACUAUUAUGAAAAUCCAGCCAUCAAAGAAGAGAUAUCAACC	0.161
UUUGCACAUUCGUCACCUCUGGAACGAGGUGGCAUUCACUCCAACCUGUGCUCUAGCCCUCUUAAUUCUAGAGCAGUGGAAGACUUCUCAUCAAGGAUGGAUCCCUGCAGCUAUGCCAUG	0.161
AUCUCCGCUAUGAACAAGGUGGCUGAAGUUUUACAAGUACCUCCAAUGAGAGUAUAUGAAGUAGCAACUUUUUAUACAAUGUAUAAUCGAAAGCCAGUUGGGAAGUACCAUAUCCAGGUC	0.103
AAUGUUUCAUCAUCAGGAACUUUCGGUUUUAAAAAAGAAACAUUACUUUUGUCUGCUAAAGUAAACCAUAUAUAGGGAAAUUAACACCUAGGAAAAGAAAACUGGCAAGAGAAUUGAUGA	0.404
GCCCGAGGCCUGAAGGAUGCUAACCAAAUUCGAGACGAAGAGCGCGCGGGUCAAAGGCCUUAGUUUUCAUCCUAAAAGACCCUGGAUCCUGACCAGUUUACACAAUGGGGUCAUCCAGUU	0.178

Study 5 — organism: Saccharomyces cerevisiae; effect on: binding; technique: competitive growth deep sequencing; molecule type: peptide; strain: cyclin D3-Cln2 fusion strain; setting: peptide tiling library; direction: direction not given
Molecule	enrichment score
NEGVSNAVRRSLYIRD	-1.85
ESSQLTVQAEFDMSAI	1.27
SPPRGRRLFPPGPAGF	-0.447
KVRRNLFNQELLSP	-1.38
QYQVVDDIVSKLVFDF	-0.154
AKRSLGFLPQPVPL	-1.19
RQVRRDLFAF	-1.97
GTPKRCLDLSNLSSGE	2.26
EHCRVLFLDHVMYTIH	-0.616
LENIEPLQVSFAVLSS	0.866
DVSERGYVILPNDYFE	1.21
YLYLLLTQSLWCRV	-1.17
EPRNLLSLFEDTLDPT	-0.0764
ATNSSHTDAHEILVSD	0.0771
NSMKELNFSHLPSNSV	0.155
QNPCGSKACRRLFGPV	-1.36
GPVKLEFDVSDGAT	0.256

Mixed results
Molecule	target	test	test system	setting	how to read	measurement	value
PhoQ, residues 284 288 289 292 302 303 AGCYAI	PhoP, residues 12 14 15 18 19 MHTVL (Escherichia coli, UniProt P23836)	Sort-seq, refers to: YFP reporter	E. coli	PhoQ-PhoP variant library, together with: 10 µM Mg2+	reference: high Mg2+ state, higher = stronger signaling	fold induction	12.2

For quick reference, copied from above (study 3):
Change	binding fitness
N42Q	-0.593 natural log
K39M	-0.326 natural log
L38M	-0.825 natural log
E32P	-1.28 natural log
K39Q	-0.277 natural log
E54A	-0.424 natural log
M51K	-0.255 natural log
